Assay results from different studies.
Parts stem from different laboratories: compare values within a part only. Changes are numbered by the printed parent chain.

Sample 1
Target: Sal-like protein 4, full length isoform B (SALL4, Homo sapiens, UniProt Q9UJQ4-2, residues 1-616)
Method: universal PBM
Form: double-stranded DNA, one strand shown
Medium: in vitro
Concentration: not given
Notes: 8-mer, flanks averaged, mean of replicates
Direction: higher = stronger binding
Endpoint: E-score
GCTTAATA: 0.292
CGGTTGAA: -0.0539
ATTAAAGA: 0.353
CTACACGC: -0.0806
CGACGATA: 0.0481
CACCTCCG: -0.181
CGCCCAGA: -0.266
CCCAGAAA: -0.128

Sample 2
Target: RING finger protein unkempt homolog, zinc fingers 1-6, GST-SBP tag (UNK, Homo sapiens, UniProt Q9C0B0, residues 30-357)
Sequence of UniProt Q9C0B0 (30-357, looked up): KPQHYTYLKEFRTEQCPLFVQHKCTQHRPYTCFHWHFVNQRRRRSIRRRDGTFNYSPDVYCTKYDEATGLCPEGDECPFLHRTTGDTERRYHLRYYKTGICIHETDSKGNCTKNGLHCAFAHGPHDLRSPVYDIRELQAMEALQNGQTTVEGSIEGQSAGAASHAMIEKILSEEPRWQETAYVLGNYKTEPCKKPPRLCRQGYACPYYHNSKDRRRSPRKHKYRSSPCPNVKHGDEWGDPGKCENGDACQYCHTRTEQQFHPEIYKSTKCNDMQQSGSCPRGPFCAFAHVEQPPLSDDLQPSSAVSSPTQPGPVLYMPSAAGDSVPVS
Method: RNA Bind-n-Seq
Form: RNA
Medium: in vitro
Concentration: not given
Notes: RNA with constant flanks, human-mouse chimeric sites, ends assumed
Reference: input RNA pool
Direction: higher = stronger binding
Endpoint: bound/input enrichment
Constant ends, left off below: GGGAGUUCUACAGUCCGACGAUC … CAACAGAGGAUUGAGCAUCA
UGUAGUUUCGCGGUUCAGGCUUUGUGUGUAGUUCACUUACGGUAUUAAAUUAUUAUUCUGCUUAGCUUAUAAUAAGGAUUACAAUUGUUAAAGAGGUUACUGAAUGUUACUCUGAAACUU: 0.5 ratio
CCCCAAUACCAUUUGCAAGAGUUGGAAUGCACUCUCUUUUUUAAAAAACAUGUAUACAUUUUAGGGCUGUAGAUUUAUUUUCCUGGUUUUGUUUUUCUUGCUUAUUCUUUGAGCACAGAA: 2.13 ratio
AAACAUCUGUCUUUAAGGUCAACGUAGGAGAAUGCUGGGGUGAUCAUUGUUGCCCAUGUGCCUUCUGACUGAGCUUUAAUGCUGUUCCAUGUUACAUCUUUCCUUCACUCCAGAAUUGUU: 0.105 ratio
ACUCAGAGAUUAUAUUCCCAAAGUGCUGGGAGUAAAGGUGUGGCCACUCAAUUCUCCUUGAUGGAUAUAUAUUUUUUUUAAUAUGAAUCUUCCUGUUCGUCCAGGGAAGAAAGAUUUGUU: 0.54 ratio
GAGCGUCUUGCCCGCACCGGGAUCAUAGUGACCACUAGUGAGGCUGUCCUCCUACAGCUGGUGGCUGACAAAGACCACCCGAAGUUCAAGGAAAUUCAGAACCUAAUUAAGGCGAGUGCC: 0.143 ratio
AUGGAACAUUUCGAUGCGUCACUCAGUACCUAUUUCAAGGCCUUCCUAGGCCCUCGAGAUACAAGAGUCAAAGGAUGGUUCCUCCUGGACAAUUAUAUCCCUACGUUUGUCUGUUCUGUU: 0.0878 ratio
UUUGUAUUUAUGCUAAGCACACGUGCUGGUGGUCUGGGCAUCAAUCUUGCAACUGCUGAUGUAGUCAUUUUGUAUGAUUCUGAUUGGAAUCCGCAAGUUGAUCUUCAGGCUAUGGACCGU: 0.166 ratio
CGCUUGGAUGAGGCGGGUGUCACAGAUGAAGUGCUAGAUUCUGCCAUGCAAGCCUUCUUACUAGAAAUUAUCGUUAAACAUGGGGAGCCGGCACCUUAUUUAUGUAACAAAGAUCCGUUU: 0.426 ratio

Single results of other studies
Concentration: not given
Direction: lower = stronger binding
FHL1 DNA-binding domain: Pre-rRNA-processing protein FHL1, DNA-binding domain (FHL1, Saccharomyces cerevisiae, UniProt P39521, residues 401-638)
Sequence of UniProt P39521 (401-638, looked up): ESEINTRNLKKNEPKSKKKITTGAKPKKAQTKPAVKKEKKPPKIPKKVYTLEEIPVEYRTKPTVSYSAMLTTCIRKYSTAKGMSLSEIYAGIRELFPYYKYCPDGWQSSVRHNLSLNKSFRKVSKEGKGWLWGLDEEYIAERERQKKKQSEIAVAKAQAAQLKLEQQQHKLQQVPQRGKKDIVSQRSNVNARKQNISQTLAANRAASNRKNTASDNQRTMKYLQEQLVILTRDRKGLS
P1: PafA, mature enzyme, eGFP fusion (Elizabethkingia meningoseptica, UniProt Q9KJX5); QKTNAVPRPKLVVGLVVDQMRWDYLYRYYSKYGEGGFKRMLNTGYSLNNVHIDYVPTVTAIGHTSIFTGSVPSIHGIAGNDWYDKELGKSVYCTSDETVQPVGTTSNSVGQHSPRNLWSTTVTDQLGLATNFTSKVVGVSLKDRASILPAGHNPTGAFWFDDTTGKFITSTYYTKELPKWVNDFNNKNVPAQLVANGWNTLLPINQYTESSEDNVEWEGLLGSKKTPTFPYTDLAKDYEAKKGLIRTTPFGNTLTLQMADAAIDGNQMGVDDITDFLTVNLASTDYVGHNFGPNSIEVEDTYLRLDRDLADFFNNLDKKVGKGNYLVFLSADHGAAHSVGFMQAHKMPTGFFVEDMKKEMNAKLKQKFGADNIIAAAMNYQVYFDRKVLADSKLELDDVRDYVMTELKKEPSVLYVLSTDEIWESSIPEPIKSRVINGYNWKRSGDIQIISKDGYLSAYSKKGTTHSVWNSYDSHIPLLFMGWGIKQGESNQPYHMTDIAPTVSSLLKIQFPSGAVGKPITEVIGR
CACGCA — relative binding free energy (FHL1 DNA-binding domain; SELEX-seq; double-stranded DNA, one strand shown, in vitro; 6-bp core, flanks averaged; reference: best-binding core): 0.07 ddG/RT
P1 P519V — phosphate dissociation constant (inorganic phosphate, free oxyanion; microfluidic competitive inhibition; in vitro, cell-free expressed; derived from inhibition constants, unchanged parent 615000 nM): 646 µM
TACGCA — relative binding free energy (FHL1 DNA-binding domain; SELEX-seq; double-stranded DNA, one strand shown, in vitro; 6-bp core, flanks averaged; reference: best-binding core): 0.386 ddG/RT

For quick reference, copied from above (sample 1):
GCTTAATA: 0.292
CGGTTGAA: -0.0539
ATTAAAGA: 0.353
